Measured values of several laboratories.
Protocols differ between the studies behind these lines. Values joined by “and” are separate records of one study, mostly repeats; a detail may differ. ± marks the error that the study gave.

Cc1c(C(=O)O)ccc2c3n(nc12)[C@@H]1[C@H](C3)N(CC2CC2)[C@@]2(C(=O)Nc3cc(Cl)ccc32)[C@H]1c1cccc(Cl)c1F has a plasma concentration of 1160 nM and 1480 nM and 1510 nM and 1520 nM (female BALB/c nude mice, plasma; oral, 1 mg/kg twice daily, 9 h, SJSA-1 tumour-bearing).
O=C(N[C@H](Cc1c[nH]c2ccccc12)C(=O)Nc1ccncc1)c1ccc(-c2ccc(F)c(Cl)c2)cc1F has a concentration of 20500 nM (Swiss Webster mouse, female, heart; oral, 50 mg/kg, 8 h, 20% Kolliphor vehicle).
With Cc1cc(Nc2ncc(Cl)c(Nc3ccccc3S(=O)(=O)C(C)C)n2)c(OC(C)C)cc1C1CCNCC1 the AUC(0-24h) increase was 28% (human, plasma; oral, 450 to 600 mg, cycle 1 day 1).
For O=C(COc1ccc(Cl)cc1)NC12CC(c3nnc([C@H]4C[C@@H](OC(F)(F)F)C4)o3)(C1)C2, “treatment-emergent adverse events” read 5.6% (abdominal discomfort; human, both sexes; oral, dose not given, single ascending dose, fasted, all doses; baseline: subjects).
The fu of COc1ccc2c(c1)CN(C(=O)CCN1CCC(Cc3ccccc3)CC1)CC[S@@+]2[O-] is reported as 0.575 (rat plasma; 10000 ng/mL).
C=CC(=O)Nc1cc(Nc2nccc(-c3cn(C)c4ccccc34)n2)c(OC)cc1N(C)CCN(C)C gave a recovery of 90.2% (storage stability; human dried blood spots; 5 h, on ice, low QC level).
For CCN1CCN(Cc2ccc(NC(=O)c3ccc(C)c(NC(=O)c4cncc(-c5cccs5)c4)c3)cc2C(F)(F)F)CC1, the plasma concentration was 621 ng/mL and 581 ng/mL and 639 ng/mL (LC-MS/MS; C57BL/6 mouse, plasma; intraperitoneal, 20 mg/kg single dose, 0.25 h).
For CSc1ccccc1C(=O)NCCn1cc(C(=O)NCc2cccc(C)n2)c(=O)c2cc3c(cc21)OC(F)(F)O3, the AUC(0-t) was 129 ± 11.5 ng·h/mL (Sprague-Dawley rat, male, whole blood; intravenous, 5 mg/kg of parent compound).
For CC(C)(C(=O)N1CCOc2c(C#N)cncc2C1)C(F)F, “subjects with investigations TEAE” read 0% (human, both sexes; oral, 30 mg single dose).
COc1ccc([C@@H](O)c2cc(-c3ncnc4cc(N5CCOCC5)ccc34)c(F)cc2Cl)nn1: “nausea TEAE incidence” 33% (locally advanced rectal cancer patients; 150 mg, added: capecitabine and radiotherapy).
The radioactivity uptake of O=C(O)CCCOc1ccc([18F])cc1-c1cc(-c2ccccc2C(F)(F)F)n(-c2ccccc2)n1 is reported as 1.88 ± 0.89 SUV (gamma counting; male ddY mice, liver; intravenous, 2.1 MBq, 1 min).
For Cc1nc(-c2cnc(NC(C)C)n(C)c2=O)ccc1Oc1ccnc(-c2cnn(C)c2)c1, “apparent volume of distribution” read 1.88 L/kg (DBA/1 mouse, female, plasma; oral, 7.5 mg/kg, single dose).
CNCc1ccc(-c2[nH]c3cc(F)cc4c3c2CCNC4=O)cc1 gave a headache incidence of 33.3% (human patients; oral, 840 mg twice daily, all grades).
The tumour concentration of CN1CCN(C(=O)[C@H](CCCN[C@@H]2C[C@H]2c2ccc(F)cc2)NC(=O)c2ccc(-n3ccnn3)cc2)CC1 is reported as 1200 ± 450 nM (NOD/SCID mouse MV4-11 xenograft, subcutaneous tumour; oral, 7.5 mg/kg/day, 24 h).
With COC[C@H]1C[C@@H](c2ncc(-c3ccc4c(c3)COc3cc5c(ccc6nc([C@@H]7CC[C@H](C)N7C(=O)[C@@H](NC(=O)OC)C(C)C)[nH]c65)cc3-4)[nH]2)N(C(=O)[C@H](NC(=O)OC)c2ccccc2)C1 the Vss was 2.2 L/kg (human, plasma; oral, 150 mg).
CCCCCCCOc1ccc(CCC(N)(CO)CO)cc1C(F)(F)F.Cl gave a renal clearance of 0.0582 mL/min (healthy men; oral, 0.5 mg, day 1).
Cn1ncnc1[C@H]1c2n[nH]c(=O)c3cc(F)cc(c23)N[C@@H]1c1ccc(F)cc1 — result for “CL/F at steady state”: 2.4 L/h/m2 (human patients, plasma; oral, 600 µg/m2 twice daily day 1, day 5, dose level DL6, median, added: temozolomide 55 mg/m2 daily days 2-6).
CC[C@H](C)[C@H](NC(=O)[C@H](Cc1ccccc1)NC(=O)[C@H](CCC(=O)O)NC(=O)[C@H](CCCCNC(=O)COCCOCCNC(=O)COCCOCCNC(=O)CC[C@H](NC(=O)CCCCCCCCCCCCCCCCC(=O)O)C(=O)O)NC(=O)[C@H](C)NC(=O)[C@H](C)NC(=O)[C@H](CCC(N)=O)NC(=O)CNC(=O)[C@H](CCC(=O)O)NC(=O)[C@H](CC(C)C)NC(=O)[C@H](Cc1ccc(O)cc1)NC(=O)[C@H](CO)NC(=O)[C@H](CO)NC(=O)[C@@H](NC(=O)[C@H](CC(=O)O)NC(=O)[C@H](CO)NC(=O)[C@@H](NC(=O)[C@H](Cc1ccccc1)NC(=O)[C@@H](NC(=O)CNC(=O)[C@H](CCC(=O)O)NC(=O)C(C)(C)NC(=O)[C@@H](N)Cc1cnc[nH]1)[C@@H](C)O)[C@@H](C)O)C(C)C)C(=O)N[C@@H](C)C(=O)N[C@@H](Cc1c[nH]c2ccccc12)C(=O)N[C@@H](CC(C)C)C(=O)N[C@H](C(=O)N[C@@H](CCCNC(=N)N)C(=O)NCC(=O)N[C@@H](CCCNC(=N)N)C(=O)NCC(=O)O)C(C)C: “QTcB change from baseline” 9.5 ms (12-lead Holter ECG; healthy humans; subcutaneous, 1.5 mg once weekly, 26 h, steady state; baseline: placebo).

A few entries again:
O=C(N[C@H](Cc1c[nH]c2ccccc12)C(=O)Nc1ccncc1)c1ccc(-c2ccc(F)c(Cl)c2)cc1F has a concentration of 20500 nM (Swiss Webster mouse, female, heart; oral, 50 mg/kg, 8 h, 20% Kolliphor vehicle).
With Cc1cc(Nc2ncc(Cl)c(Nc3ccccc3S(=O)(=O)C(C)C)n2)c(OC(C)C)cc1C1CCNCC1 the AUC(0-24h) increase was 28% (human, plasma; oral, 450 to 600 mg, cycle 1 day 1).
